Measured values gathered from unrelated publications.
Protocols differ between the studies behind these lines. ± gives the spread as reported.

CSc1cc(C)nc(SC)c1NC(=O)CN1CCN(CCSc2nc3ccccc3[nH]2)CC1
concentration (mouse Crl:CD1 (ICR) female, cerebrum; intranasal repeated, 162 µg in 7 N HCl, 45 min, 7 days dosing): 12 ng/g

CC(C)n1ncc2c(C(=O)NCC3(C)CNC3)cc(C3CC3)nc21
concentration (Swiss Webster mouse pups, uninfected, spinal cord; intraperitoneal, 50 mg/kg, 1 h): 575 ± 100 ng/g

NC(=O)N1c2ccccc2C[C@H](O)c2ccccc21
concentration (mouse (NMRI), brain organic phase; oral, 50 mg/kg eslicarbazepine acetate, 60 min, organic phase 20% of brain): 102 µM

Cc1nc(Nc2ncc(C(=O)Nc3c(C)cccc3Cl)s2)cc(N2CCN(CCO)CC2)n1
concentration (C57BL/6 mouse, male, wild type, spleen; oral, 10 mg/kg, 5 min): 46.5 ± 11.8 ng/g

COc1ccc(S(=O)(=O)Nc2nc(-c3cccc([N+](=O)[O-])c3)c(CN3CCCCC3)s2)cc1OC
concentration (mouse wild type, plasma; oral, 300 mg/kg, 5 h): 40 µM

COC(=O)C[C@](O)(CCCC(C)(C)O)C(=O)O[C@@H]1C(OC)=C[C@]23CCCN2CCc2cc4c(cc2[C@H]13)OCO4
concentration (CD1 mouse, esophagus; subcutaneous, 1 mg/kg, 24 h): not detected

CC(=O)Nc1noc(C)n1
concentration (HPLC-MS; C57BL/6 mouse, male, brain; oral, 60 mg/kg, 45 min): 4000 to 9970 ng/g

S=C(NCCc1nc(-c2ccccc2)cs1)N1CCCCC1
concentration (mouse, plasma; intraperitoneal, 5 mg/kg, 1 h): 2 ± 0.885 µM

Cc1cc(-c2cc(OC(=O)c3ccccc3)ccc2Cl)cc2nnc(Nc3ccc(OCCN4CCCC4)cc3)nc12
concentration (C57BL/6 mouse, sclera/choroid; topical, 1%, 24 h): 0.026 µM

CCn1nc(C2CC2)cc1Nc1nc(C(=O)NCCCCCc2cccc3c2CN(C2CCC(=O)NC2=O)C3=O)nc2[nH]c3cc(-c4c(C)noc4C)c(OC)cc3c12 (stereo not shown)
concentration in tumour (female SCID C.B-17 mouse, RS4;11 xenograft, tumour; intravenous, 5 mg/kg single, 1 h): 136 ng/g

Some of these lines once more:
CC(=O)Nc1noc(C)n1
concentration (HPLC-MS; C57BL/6 mouse, male, brain; oral, 60 mg/kg, 45 min): 4000 to 9970 ng/g

S=C(NCCc1nc(-c2ccccc2)cs1)N1CCCCC1
concentration (mouse, plasma; intraperitoneal, 5 mg/kg, 1 h): 2 ± 0.885 µM
